Assay results gathered from unrelated publications.
Lines come from different studies, so protocols differ. ± marks the error that the study gave. ≈ marks a conversion by molar mass, not a printed value.

The steady-state concentration of `O=C(O)CCn1c(=O)oc2cc(Cl)c(Cl)cc21` is reported as ~600 µM (Sprague-Dawley rat, male, acute pancreatitis, plasma; intravenous, 24 mg/kg bolus then 5.5 mg/kg/h, 1 h).
Under “body weight loss”, `CCNC(=O)c1noc(-c2cc(C(C)C)c(O)cc2O)c1NC(=O)CCN1CCOCC1` is recorded as 2% (athymic nude mice, A2780/Dx xenograft; intraperitoneal, 200 mg/kg, every 4 days for 3 weeks).
Under “standard enthalpy of aggregation”, `CCCCCCCCCCCCC(=O)O.O=C1CCCC2C3CCCN4CCCC(CN12)C34` (stereo not drawn) is recorded as -2.38 kJ/mol (electrical conductivity; water; 308.15 K).
`CC(C)[C@@H](CN1CC[C@@](C)(c2cccc(C(N)=O)c2)[C@@H](C)C1)NC(=O)[C@H]1Cc2ccc(O)cc2CN1` has a kinetic solubility of > 20% (10 mM phosphate buffer; 90 min, pH 7.4).
`O=P([O-])([O-])Oc1ccc(-c2cc(=S)ss2)cc1.[Na+].[Na+]` has a solubility of 2.18 mg/mL (HPLC; water; 48 h, 25 °C).
`CN(C)C(CNC(=O)Nc1cc(C(F)(F)F)ccc1N1CCOCC1)c1ccncc1` (stereo not drawn) — result for “serum total protein”: 3.5 g/dL (mouse, serum; intraperitoneal, 360 mg/kg single dose).
The stability accuracy of `C[C@@H]1CC[C@H]2[C@@H](C)CO[C@@H]3O[C@@]4(C)CC[C@@H]1[C@]32OO4` is reported as 96.9% (measured: compound; rat, plasma; 800 ng/mL spiked, three freeze/thaw cycles).
With `CSCC[C@@H]1NC(=O)[C@@H]2CSSC[C@H](NC(=O)[C@H](CO)NC(=O)[C@H](C)N)C(=O)N[C@@H](CCCNC(=N)N)C(=O)N[C@@H]([C@@H](C)O)C(=O)N3CCC[C@H]3C(=O)N[C@@H](CCCCN)C(=O)N[C@@H](CC(=O)O)C(=O)N[C@H]3CSSC[C@H](NC(=O)[C@H](CCCCN)NC(=O)[C@H](CCCNC(=N)N)NC(=O)[C@H](CC(N)=O)NC1=O)C(=O)N[C@@H](CCCCN)C(=O)N[C@H]1CSSC[C@H](NC(=O)[C@@H]4CCCN4C(=O)[C@H](CC(=O)O)NC(=O)[C@H](C)NC3=O)C(=O)N[C@@H](C)C(=O)N[C@@H](CCCCN)C(=O)N[C@@H](CCC(=O)O)C(=O)N[C@@H]([C@@H](C)O)C(=O)NCC(=O)N[C@@H](CSSC[C@@H](C(N)=O)NC(=O)[C@H](CCCNC(=N)N)NC(=O)[C@H](CC(N)=O)NC1=O)C(=O)N1CCC[C@H]1C(=O)N[C@@H](Cc1ccc(O)cc1)C(=O)NCC(=O)N[C@@H](CCCCN)C(=O)N2` the Triglycerides was 66 mg/dL (DA rat pristane-induced arthritis, serum; subcutaneous, 0.1 mg/kg single dose at onset, 21 days).
`O=C(O)CC[C@H](NC(=O)O[C@@H](CCCCNC(=O)c1ccc([18F])cc1)C(=O)O)C(=O)O` has a tissue uptake of 0.07 ± 0.04 %ID/g (mouse, PC-3 PIP/flu xenografts, heart; 180 min).
For `CC[C@H](C)C(=O)N1CCC(NC(=O)Nc2ccc(OC(F)(F)F)c(F)c2)CC1`, “subjects with laryngitis TEAE” read 16.7% (healthy volunteers; oral, 0.5 mg single dose).
For `CC(C)[C@H](NC(=O)CNC(=O)[C@H](CCC(N)=O)NC(=O)[C@H](C)N)C(=O)O`, tolerability read “not toxic” (human; 1 to 30 mg/kg, single dose).
`CSCC[C@H](N)C(=O)N[C@@H](Cc1ccc(O)cc1)C(=O)N[C@@H](CCCNC(=N)N)C(=O)N[C@@H](Cc1ccccc1)C(=O)N[C@@H](C)C(=O)N[C@@H](C)C(=O)N[C@@H](CO)C(=O)N[C@@H](CC(C)C)C(=O)N[C@@H](C)C(=O)N[C@@H](CO)C(=O)N[C@@H](CCCCN)C(=O)N[C@@H](C)C(=O)N[C@@H](CCCNC(=N)N)C(=O)N[C@H](C(=O)N[C@@H](C)C(N)=O)C(C)C` has a thermodynamic solubility of 28.7 mM (≈ 47.1 mg/mL) (water; 0.167 min).
`CC[C@H](C)[C@H](NC(=O)[C@H](CC(=O)O)NC(=O)[C@H](CO)NC(=O)[C@H](CCC(N)=O)NC(=O)[C@H](C)NC(=O)[C@H](CC(=O)O)NC(=O)[C@H](CCC(=O)O)NC(=O)[C@H](Cc1c[nH]cn1)NC(=O)[C@H](Cc1ccc(O)cc1)NC(=O)[C@H](C)NC(=O)[C@H](CC(=O)O)NC(=O)[C@H](CCC(=O)O)NC(=O)[C@H](Cc1c[nH]cn1)NC(=O)[C@H](Cc1ccc(O)cc1)NC(=O)[C@H](C)NC(=O)[C@H](CC(=O)O)NC(=O)[C@H](CCC(=O)O)NC(=O)[C@H](Cc1c[nH]cn1)NC(=O)[C@H](Cc1ccc(O)cc1)NC(=O)[C@H](C)NC(=O)[C@H](CC(=O)O)NC(=O)[C@H](CCC(=O)O)NC(=O)[C@H](Cc1c[nH]cn1)NC(=O)[C@H](Cc1ccc(O)cc1)NC(=O)[C@H](C)NC(=O)[C@H](CC(=O)O)NC(=O)[C@H](CCC(=O)O)NC(=O)[C@H](Cc1c[nH]cn1)NC(=O)[C@@H](N)Cc1ccc(O)cc1)C(=O)N[C@H](C(=O)N[C@@H](C)C(=O)N[C@@H](Cc1c[nH]cn1)C(=O)N[C@@H](CC(C)C)C(=O)N[C@@H](CC(C)C)C(=O)O)C(C)C` gave an MPV of 6.7 ± 1 fL (normal mouse; dose not given).
`CC(=CCC(O)C(C)=Cc1csc(C)n1)CC=CC(C)C(O)C(C)C(=O)C(C)(C)C(O)CC(=O)O` (stereo not drawn) has an AUC ratio of 11.2 ± 8.71% (human, plasma; intravenous infusion, 11.3 mg/m2 KOS-1584, 3 h infusion, cycle 1; relative to: metabolite over KOS-1584).
`CC(Nc1c(-c2c(F)cc(OCCCN(C)C)cc2F)c(Cl)nc2ncnn12)C(C)(C)C` (stereo not drawn): “lowest dose causing intolerance” > 17 mg/kg (BALB/c mice, male and female; intraperitoneal, 48 h).

For quick reference, copied from above:
`CSCC[C@H](N)C(=O)N[C@@H](Cc1ccc(O)cc1)C(=O)N[C@@H](CCCNC(=N)N)C(=O)N[C@@H](Cc1ccccc1)C(=O)N[C@@H](C)C(=O)N[C@@H](C)C(=O)N[C@@H](CO)C(=O)N[C@@H](CC(C)C)C(=O)N[C@@H](C)C(=O)N[C@@H](CO)C(=O)N[C@@H](CCCCN)C(=O)N[C@@H](C)C(=O)N[C@@H](CCCNC(=N)N)C(=O)N[C@H](C(=O)N[C@@H](C)C(N)=O)C(C)C` has a thermodynamic solubility of 28.7 mM (≈ 47.1 mg/mL) (water; 0.167 min).
